# Measured values pooled from the literature.
# Lines come from different studies, so protocols differ. Numbers after ± are the reported error.
# ppa: Inorganic pyrophosphatase (ppa, Escherichia coli, UniProt P0A7A9)
# Chain of UniProt P0A7A9 (whole entry, looked up): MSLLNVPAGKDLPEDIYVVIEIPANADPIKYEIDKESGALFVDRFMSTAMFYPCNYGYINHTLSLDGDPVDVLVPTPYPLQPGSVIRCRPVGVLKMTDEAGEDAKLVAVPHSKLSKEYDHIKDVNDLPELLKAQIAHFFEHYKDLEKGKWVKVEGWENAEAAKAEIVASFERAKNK
# TDP1: Tyrosyl-DNA phosphodiesterase 1 (TDP1, Homo sapiens, UniProt Q9NUW8)
# Chain of UniProt Q9NUW8 (whole entry, looked up): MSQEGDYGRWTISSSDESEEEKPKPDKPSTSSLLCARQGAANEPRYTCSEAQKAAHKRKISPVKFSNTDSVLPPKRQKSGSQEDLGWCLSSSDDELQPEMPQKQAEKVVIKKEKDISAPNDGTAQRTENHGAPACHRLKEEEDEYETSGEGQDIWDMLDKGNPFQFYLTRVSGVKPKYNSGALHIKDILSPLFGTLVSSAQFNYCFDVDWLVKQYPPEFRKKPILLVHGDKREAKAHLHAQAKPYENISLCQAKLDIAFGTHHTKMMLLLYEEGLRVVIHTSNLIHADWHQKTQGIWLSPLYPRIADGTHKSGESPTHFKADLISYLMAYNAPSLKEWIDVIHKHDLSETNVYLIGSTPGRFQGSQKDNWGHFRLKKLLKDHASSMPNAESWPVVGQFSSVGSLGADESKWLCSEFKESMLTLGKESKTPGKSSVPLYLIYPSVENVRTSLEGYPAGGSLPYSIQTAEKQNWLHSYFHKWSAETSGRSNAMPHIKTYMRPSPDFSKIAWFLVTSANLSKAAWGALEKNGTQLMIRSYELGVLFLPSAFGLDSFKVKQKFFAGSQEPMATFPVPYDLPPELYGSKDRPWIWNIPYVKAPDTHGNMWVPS
# PIK3C2A: Phosphatidylinositol 4-phosphate 3-kinase C2 domain-containing subunit alpha (PIK3C2A, Homo sapiens, UniProt O00443)
# Uncharacterized protein: Uncharacterized protein (Trypanosoma brucei brucei, UniProt Q386Q8)
# ADRB3: Beta-3 adrenergic receptor (ADRB3, Homo sapiens, UniProt P13945)
# Chain of UniProt P13945 (whole entry, looked up): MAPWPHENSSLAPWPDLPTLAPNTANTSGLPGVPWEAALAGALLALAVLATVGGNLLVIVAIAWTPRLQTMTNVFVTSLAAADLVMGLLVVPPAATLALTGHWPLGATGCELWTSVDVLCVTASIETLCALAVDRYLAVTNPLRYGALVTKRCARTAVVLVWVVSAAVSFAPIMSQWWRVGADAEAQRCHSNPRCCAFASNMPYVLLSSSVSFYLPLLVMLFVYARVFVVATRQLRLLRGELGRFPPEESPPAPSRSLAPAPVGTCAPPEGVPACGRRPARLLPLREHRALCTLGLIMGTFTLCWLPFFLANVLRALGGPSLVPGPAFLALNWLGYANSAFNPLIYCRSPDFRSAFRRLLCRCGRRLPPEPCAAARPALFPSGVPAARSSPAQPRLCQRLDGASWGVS
# OfChi-h: Chitinase (OfChi-h, Ostrinia furnacalis, UniProt Q4AE59)
# Chain of UniProt Q5U3Y7 (whole entry, looked up): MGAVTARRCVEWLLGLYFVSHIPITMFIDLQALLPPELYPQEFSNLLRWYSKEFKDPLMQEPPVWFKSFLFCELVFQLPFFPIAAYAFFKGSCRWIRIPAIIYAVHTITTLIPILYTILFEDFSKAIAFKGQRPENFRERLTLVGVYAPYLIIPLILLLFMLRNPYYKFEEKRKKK
# Chain of UniProt P41145 (whole entry, looked up): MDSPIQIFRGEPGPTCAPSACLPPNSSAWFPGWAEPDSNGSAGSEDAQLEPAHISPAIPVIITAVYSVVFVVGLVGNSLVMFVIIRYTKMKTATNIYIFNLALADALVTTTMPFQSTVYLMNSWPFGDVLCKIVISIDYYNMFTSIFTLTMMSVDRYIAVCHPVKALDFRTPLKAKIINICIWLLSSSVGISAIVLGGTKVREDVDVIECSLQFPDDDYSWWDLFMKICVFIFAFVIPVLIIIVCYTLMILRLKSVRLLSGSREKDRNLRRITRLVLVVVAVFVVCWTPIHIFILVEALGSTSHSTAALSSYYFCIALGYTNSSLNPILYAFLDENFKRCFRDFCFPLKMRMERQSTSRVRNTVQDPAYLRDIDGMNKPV
# Chain of UniProt O43497 (whole entry, looked up): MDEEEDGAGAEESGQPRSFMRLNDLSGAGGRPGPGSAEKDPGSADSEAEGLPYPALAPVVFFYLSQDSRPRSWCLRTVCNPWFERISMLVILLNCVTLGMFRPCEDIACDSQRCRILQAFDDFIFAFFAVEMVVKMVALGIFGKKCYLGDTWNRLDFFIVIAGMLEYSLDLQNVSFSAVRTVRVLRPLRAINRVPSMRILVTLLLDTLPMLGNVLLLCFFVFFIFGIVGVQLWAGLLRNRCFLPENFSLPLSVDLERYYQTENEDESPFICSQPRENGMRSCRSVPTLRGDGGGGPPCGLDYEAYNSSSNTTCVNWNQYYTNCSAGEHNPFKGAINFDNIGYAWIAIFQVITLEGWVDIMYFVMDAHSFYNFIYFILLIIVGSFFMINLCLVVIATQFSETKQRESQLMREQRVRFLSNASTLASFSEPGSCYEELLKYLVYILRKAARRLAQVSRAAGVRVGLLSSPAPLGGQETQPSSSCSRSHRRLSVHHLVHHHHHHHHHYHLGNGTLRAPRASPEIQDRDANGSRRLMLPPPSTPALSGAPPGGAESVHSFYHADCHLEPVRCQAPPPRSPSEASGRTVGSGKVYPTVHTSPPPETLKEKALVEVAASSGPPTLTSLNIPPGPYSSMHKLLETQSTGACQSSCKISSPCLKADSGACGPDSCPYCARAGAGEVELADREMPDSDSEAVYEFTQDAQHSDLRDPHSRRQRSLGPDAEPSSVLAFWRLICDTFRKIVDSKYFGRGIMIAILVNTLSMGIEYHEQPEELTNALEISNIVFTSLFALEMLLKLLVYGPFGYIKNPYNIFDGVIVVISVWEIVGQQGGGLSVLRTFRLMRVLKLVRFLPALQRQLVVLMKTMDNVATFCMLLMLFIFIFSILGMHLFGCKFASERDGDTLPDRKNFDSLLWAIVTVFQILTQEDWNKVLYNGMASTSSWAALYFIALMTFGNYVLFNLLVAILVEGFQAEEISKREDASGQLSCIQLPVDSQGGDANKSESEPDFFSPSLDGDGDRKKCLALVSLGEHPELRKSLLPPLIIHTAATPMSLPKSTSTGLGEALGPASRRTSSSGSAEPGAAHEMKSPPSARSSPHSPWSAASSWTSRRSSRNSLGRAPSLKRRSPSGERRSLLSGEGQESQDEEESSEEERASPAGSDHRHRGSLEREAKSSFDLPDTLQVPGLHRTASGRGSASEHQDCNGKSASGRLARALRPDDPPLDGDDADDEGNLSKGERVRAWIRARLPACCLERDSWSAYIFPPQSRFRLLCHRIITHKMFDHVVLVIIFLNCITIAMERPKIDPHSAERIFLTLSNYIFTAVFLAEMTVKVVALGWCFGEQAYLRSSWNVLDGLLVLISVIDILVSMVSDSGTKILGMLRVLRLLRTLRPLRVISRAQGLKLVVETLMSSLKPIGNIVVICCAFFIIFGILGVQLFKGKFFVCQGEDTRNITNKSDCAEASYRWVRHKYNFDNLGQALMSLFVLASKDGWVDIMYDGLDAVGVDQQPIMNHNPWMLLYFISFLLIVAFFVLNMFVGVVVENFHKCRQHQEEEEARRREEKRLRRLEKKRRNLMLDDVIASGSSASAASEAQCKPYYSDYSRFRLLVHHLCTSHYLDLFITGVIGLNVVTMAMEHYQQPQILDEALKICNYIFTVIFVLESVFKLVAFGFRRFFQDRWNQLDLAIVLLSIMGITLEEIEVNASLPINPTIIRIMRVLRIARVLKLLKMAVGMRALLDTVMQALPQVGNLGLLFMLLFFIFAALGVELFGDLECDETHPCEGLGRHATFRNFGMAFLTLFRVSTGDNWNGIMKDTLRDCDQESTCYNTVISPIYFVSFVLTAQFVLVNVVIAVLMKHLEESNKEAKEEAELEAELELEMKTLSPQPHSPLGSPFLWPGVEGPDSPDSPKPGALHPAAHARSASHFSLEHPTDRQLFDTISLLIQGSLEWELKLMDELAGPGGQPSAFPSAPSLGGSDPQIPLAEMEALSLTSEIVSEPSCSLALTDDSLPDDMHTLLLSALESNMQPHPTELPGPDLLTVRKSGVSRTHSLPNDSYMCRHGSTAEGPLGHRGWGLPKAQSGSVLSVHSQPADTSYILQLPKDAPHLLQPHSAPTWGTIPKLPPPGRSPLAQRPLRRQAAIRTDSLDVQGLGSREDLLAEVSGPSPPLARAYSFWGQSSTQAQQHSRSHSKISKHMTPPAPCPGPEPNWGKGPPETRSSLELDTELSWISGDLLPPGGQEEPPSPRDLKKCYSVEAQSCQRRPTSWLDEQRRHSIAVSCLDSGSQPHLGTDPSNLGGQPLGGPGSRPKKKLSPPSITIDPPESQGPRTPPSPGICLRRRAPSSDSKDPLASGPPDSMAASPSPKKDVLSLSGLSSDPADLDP
# Chain of UniProt Q460N3 (whole entry, looked up): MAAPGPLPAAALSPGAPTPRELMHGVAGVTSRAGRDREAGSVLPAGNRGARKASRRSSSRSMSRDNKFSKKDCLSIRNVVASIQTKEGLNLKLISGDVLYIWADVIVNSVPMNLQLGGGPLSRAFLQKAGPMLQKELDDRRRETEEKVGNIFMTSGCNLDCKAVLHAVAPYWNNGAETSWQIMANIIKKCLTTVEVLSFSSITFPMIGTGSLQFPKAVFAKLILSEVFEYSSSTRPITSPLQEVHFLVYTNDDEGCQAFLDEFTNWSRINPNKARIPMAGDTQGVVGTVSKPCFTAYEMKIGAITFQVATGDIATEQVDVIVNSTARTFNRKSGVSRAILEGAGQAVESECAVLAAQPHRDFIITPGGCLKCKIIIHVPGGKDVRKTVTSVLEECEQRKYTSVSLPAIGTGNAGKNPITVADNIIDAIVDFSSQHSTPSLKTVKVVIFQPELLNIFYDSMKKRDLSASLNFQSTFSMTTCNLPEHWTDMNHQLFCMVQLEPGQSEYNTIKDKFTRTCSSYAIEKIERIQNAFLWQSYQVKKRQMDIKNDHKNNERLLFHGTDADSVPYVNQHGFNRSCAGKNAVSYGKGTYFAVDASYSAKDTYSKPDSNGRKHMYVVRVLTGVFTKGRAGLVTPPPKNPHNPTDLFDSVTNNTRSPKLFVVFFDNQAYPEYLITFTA
SMILES,target or system,assay,test system,setting,scale,quantity,result
Cn1ncc2cc(-c3cncc(Cl)c3N3CCC4(CCNC4=O)CC3)ccc21,LS174T,"gene expression, microarray, item: GBP2 mRNA",,"concentration not given, 24 h",relative to: untreated cells,log2 fold change,-1.45
O=C(Nc1cccc(C(F)(F)F)c1)c1ccc(CSc2nnnn2-c2ccccc2)cc1,"Potassium channel subfamily T member 1 (KCNT1, Homo sapiens, UniProt Q5JUK3)","ion current, inhibitor, patch clamp",HEK293,10 µM,,inhibition,> 40%
CC1=NN(c2ccccc2F)C(=O)/C1=N\Nc1ccc(S(N)(=O)=O)cc1,bovine α-glucosidase,"enzyme activity, inhibitor, glucose oxidase",,"200 µg/mL, with: maltose",,inhibition,42.6%
CC(=O)C1=C(c2ccc(OC(F)F)cc2)N(C(C)=O)n2cnnc2S1,ppa,"inhibitor, counter-screen, coupling enzyme alone",,30 µM,,inhibition,33%
Cc1nc(C)c(C=NOCc2ccc(-c3nc4cc(-c5ccccc5)ccn4c3Nc3ccc(C(=O)O)cc3)cc2)s1,TDP1,"enzyme activity, inhibitor",,"100 µM, unpurified compound",,inhibition,39%
C=CC(=O)N1Cc2nc(-c3cc(-c4cc(Cl)cnc4Cl)c(F)cc3F)n(-c3ccncn3)c2C1,PIK3C2A,"cell-free assay, inhibitor",,1 µM,,inhibition,-4.5%
Cc1nc2c(F)cc(-c3nc(Nc4ccc(CNC(=O)CCCCCCC(=O)NO)cc4)ncc3F)cc2n1C(C)C,"Phosphatidylinositol 4,5-bisphosphate 3-kinase catalytic subunit alpha isoform, with p85 alpha (Pik3ca, Mus musculus, UniProt P42337)",enzyme activity,,"1 µM, p110α/p85α)(m mouse",,inhibition,18%
Cc1nn(-c2cccc(N)c2)c(=O)c2cnc(Nc3ccc(N4CCNCC4)cc3)nc12,"Serine/threonine-protein kinase Nek2 (NEK2, Homo sapiens, UniProt P51955)","enzyme activity, inhibitor",,,,IC50,1430 nM
CNc1sc(C(=O)c2ccc(OC)cc2)c(N)c1C#N,Uncharacterized protein,"enzyme activity, inhibitor, coupled colorimetric",,"30 µM, with: E. coli pyrophosphatase coupling",,inhibition,28.5%
C/C=C/C(=O)Nc1ccc2nc(NCCCCCN(C)C)nc(NCCCCCCN(C)C)c2c1,"Protein arginine N-methyltransferase 8 (PRMT8, Homo sapiens, UniProt Q9NR22)","enzyme activity, inhibitor, radiometric",,10 µM,,inhibition,37%
Cc1ncsc1-c1ccc(C(C)NC(=O)C2CC(O)CN2C(=O)C(NC(=O)CCCCCCCCCCN2CCCC(Nc3ncc(Cl)c(Nc4ccccc4S(=O)(=O)C(C)C)n3)C2)C(C)(C)C)cc1 (stereo not shown),22Rv1,"RNA-seq, item: RNF43 mRNA",,concentration not given,relative to: DMSO,log2 fold change,-1.48
C[N+](C)(CCCN1c2ccccc2CCc2ccc(Cl)cc21)Cc1ccc2ccccc2c1,Uncharacterized protein,"enzyme activity, inhibitor, coupled colorimetric",,"30 µM, with: E. coli pyrophosphatase coupling",,inhibition,36.1%
Cn1c(C=NOCc2ccc(-c3nc4cc(-c5ccccc5)ccn4c3Nc3ccc(C(=O)O)cc3)cc2)ccc1-c1cccc([N+](=O)[O-])c1 (mixture of isomers),TDP1,"enzyme activity, inhibitor",,"100 µM, unpurified compound",,inhibition,87.1%
COc1ccc(S(=O)(=O)N2CCc3ccccc3C2)cc1N1CCN(C(=O)c2ccc(F)cc2C(F)(F)F)CC1,ADRB3,"ligand displacement, radioligand",,1 µM,,inhibition,4.7%
COc1ccc(Br)cc1C[N+](C)(C)CCCN1c2ccccc2CCc2ccc(Cl)cc21,Uncharacterized protein,"enzyme activity, inhibitor, coupled colorimetric",,"30 µM, with: E. coli pyrophosphatase coupling",,inhibition,39.9%
O=C(O)c1ccc(Nc2c(-c3ccccc3)nc3ccc(CON=Cc4cc5cccnc5s4)cn23)cc1 (mixture of isomers),TDP1,"enzyme activity, inhibitor",,"100 µM, unpurified compound",,inhibition,29.5%
O=C1c2sc(-c3ccc(N4CCC(CO)CC4)nc3F)nc2CCN1c1cccnc1,ADRB3,"ligand displacement, radioligand",,1 µM,,inhibition,-15%
C=C(NC(=O)c1csc(-c2nc3c(cc2O)-c2nc(cs2)C(=O)NC(C(C)O)C(=O)NC(=C(C)OC)c2nc(cs2)C(=O)NC2c4nc(cs4)C(=O)NC(COC(=O)c4c5c6c(cccc6n4O)COC(=O)C(OC4CC(C)(O)C(N(C)C)C(C)O4)C2OC5)c2nc-3cs2)n1)C(N)=O (stereo not shown),,,"cynomolgus monkey, male, plasma","intravenous infusion, 3 mg/kg, multiple doses, day 7",,AUC(0-inf),21600 ng·h/mL
COc1cc(-n2cc3cc(F)cc(C(N)=O)c3n2)cc(Cl)c1C1CC(O)(CCO)Cc2ccccc21 (stereo not shown),"Protein mono-ADP-ribosyltransferase PARP15 (PARP15, Homo sapiens, UniProt Q460N3)","enzyme activity, inhibitor",,10 µM,,inhibition,0.81%
COC1CN([C@H]2CC[C@H]([C@@]3(C)Oc4c(Cl)cc(C(=O)NCc5c(SC)cc(C)[nH]c5=O)c(C)c4O3)CC2)C1,,"RNA-seq, item: SMPD3 mouse homolog","mouse, HT-1376 xenograft, whole blood",dose not given,relative to: vehicle,log2 fold change,4.01
O=C(CSc1nnc(-c2ccco2)c(-c2ccco2)n1)c1ccc(Br)cc1,Uncharacterized protein,"enzyme activity, inhibitor, coupled colorimetric",,"30 µM, with: E. coli pyrophosphatase coupling",,inhibition,30.7%
Nc1ncc(-c2cc(-c3cnn(CC(F)(F)F)c3)ncc2F)nc1C(=O)NC1CNCC(F)C1 (stereo not shown),MARK3,KINOMEscan,,1 µM,relative to: DMSO control,remaining binding,100%
Cc1cc(C=NOCc2ccc(-c3nc4cc(-c5ccccc5)ccn4c3Nc3ccc(C(=O)O)cc3)cc2)c(C)n1-c1ccc(N2CCCC2)c([N+](=O)[O-])c1 (mixture of isomers),TDP1,"enzyme activity, inhibitor",,"100 µM, unpurified compound",,inhibition,75.8%
CN(C(=O)C(C)(C)c1cc(C(F)(F)F)cc(C(F)(F)F)c1)c1cnc(N2C[C@H]3COCCN3C[C@H]2CO)cc1-c1ccc(F)cc1CO,,,human liver microsomes,substrate depletion,,Vmax,281 pmol/min/mg
CCCC[C@H](NC(=O)CCCCCCCNC(=O)CN1CCN(CC(=O)O)CCN(CC(=O)O)CC1)C(=O)N[C@H]1CC(=O)NCCCC[C@@H](C(N)=O)NC(=O)[C@H](Cc2c[nH]c3ccccc23)NC(=O)[C@H](CCCNC(=N)N)NC(=O)[C@@H](Cc2ccccc2)NC(=O)[C@H](Cc2c[nH]cn2)NC1=O [technetium-99m labelled],,,"C57 mouse, intestine","intravenous, 0.037 MBq, 2 h",,tissue uptake,26.7 ± 1.24 %ID
CN(C)C/C=C/C(=O)Nc1ccc2nc(NCCCCCN(C)C)nc(NCCCCCCN(C)C)c2c1,"Histone-lysine N-methyltransferase EHMT1 (EHMT1, Homo sapiens, UniProt Q9H9B1)","enzyme activity, inhibitor, radiometric",,10 µM,,inhibition,57%
C=CC(=O)Nc1cccc(Cn2ncc3cnc(Nc4cnn(CCOC)c4)nc32)c1,BMPR1A human,"binding, KINOMEscan",,100 nM,lower = stronger binding,percent of control,88%
CC(C)Cn1c(SCC(=O)N2CCc3ccccc3C2)nc2cc(Cl)ccc2c1=O,sigma receptor 1,radioligand binding,,10 µM,,inhibition,7%
CC(=NOCc1ccc(-c2nc3cc(-c4ccccc4)ccn3c2Nc2ccc(C(=O)O)cc2)cc1)c1ccccc1O,TDP1,"enzyme activity, inhibitor",,"100 µM, unpurified compound",,inhibition,59.4%
CC(C)(C)OC(=O)C[N+](C)(C)CCCN1c2ccccc2CCc2ccc(Cl)cc21,ppa,"inhibitor, counter-screen, coupling enzyme alone",,30 µM,,inhibition,42%
Cc1cc(C=NOCc2ccc3nc(-c4ccccc4)c(Nc4ccc(C(=O)O)cc4)n3c2)sc1C,TDP1,"enzyme activity, inhibitor",,"100 µM, unpurified compound",,inhibition,17.2%
"CC(=O)C12NC(C)(C)CC1(C)C(=O)C1=C2c2c(c3c4n2C(C)(C)CC2=C4C4(CC(C)(C)NC(C)(C4)C2=O)CC3(C)C)C(=O)C(C)(C)N1 (single isomer, unassigned; (-))","Voltage-dependent T-type calcium channel subunit alpha-1G (CACNA1G, Homo sapiens, UniProt O43497)","calcium current, antagonist, whole-cell patch clamp",HEK293T cells,10 µM,,inhibition,3.81 ± 0.03%
CN(C)c1nc(NCc2ccc(F)cc2)c(/N=N/c2ccc(Cl)cc2)c(N(C)C)n1,OfChi-h,"enzyme activity, inhibitor, fluorescence",,1 µM,,inhibition,89.7%
Cc1nc(N)nc2c1C(=O)N[C@@H](c1ccc(F)cc1-c1cccc(OCC[18F])n1)C2,,"binding, radioligand competition",mouse brain homogenate,with: [3H]HSP990 0.6 nM,,Ki,~200 nM
CCn1cc(C(=O)O)c(=O)c2c(N)c(F)c(NC3CCCCC3)cc21,"Mitogen-activated protein kinase kinase kinase 21 (MAP3K21, Homo sapiens, UniProt Q5TCX8)",kinase activity,,"0.1 µM, with: ATP at Km",,inhibition,8.8%
CN1CCCNC(=O)c2cccc(c2)C(=O)NCCCN(C)CCCNc2cccc3c2C(=O)c2cccc(c2C3=O)NCCC1,SAS,"RNA-Seq, item: POC1A mRNA",,"1 µM, 6 h",relative to: untreated cells,log2 fold change,-0.749
C[Si](C)(C)C[C@H](CN)CC(=O)O,"Kappa-type opioid receptor (OPRK1, Homo sapiens, UniProt P41145)","ligand displacement, radioligand",,250 µM,,inhibition,5%
CC1=NN(c2cccc(F)c2)C(=O)/C1=N\Nc1ccc(S(N)(=O)=O)cc1,bovine α-glucosidase,"enzyme activity, inhibitor, glucose oxidase",,"500 µg/mL, with: maltose",,inhibition,40.3%
C[Si]1(C[C@H](CN)CC(=O)O)CCCC1,"Neuromedin-K receptor (TACR3, Homo sapiens, UniProt P29371)","ligand displacement, radioligand",,70 µM,,inhibition,-12%
CN1CC[C@@H](COc2cnc(C#N)cc2-c2ccn3nc(NC(=O)C4CC4)cc3c2)C1,PIK3C2A,"enzyme activity, inhibitor",,1 µM,,inhibition,-4%
CNS(=O)(=O)Nc1nccc(Cc2c(C)c3ccc(Oc4ncccc4F)cc3oc2=O)c1F,EFM-19,cell viability,,7 days,,IC50,> 1000 nM
O=C1c2sc(-c3ccc(N4CCC(F)C4)nc3F)nc2CCN1c1cccnc1 (stereo not shown),"Retinoic acid receptor alpha (RARA, Homo sapiens, UniProt P10276)","ligand displacement, radioligand",,1 µM,,inhibition,-3%
CC(=O)Nc1nc(C=NOCc2ccc3nc(-c4ccccc4)c(Nc4ccc(C(=O)O)cc4)n3c2)c(Br)s1 (mixture of isomers),TDP1,"enzyme activity, inhibitor",,"100 µM, unpurified compound",,inhibition,30.8%
Oc1cc2c(cc1O)C(c1ccco1)NCC2 (stereo not shown),tyrosinase,"enzyme activity, inhibitor",,"100 µM, with: levodopa",,inhibition,31.7 ± 2.26%
Brc1ccccc1-c1nnc(CSc2nnnn2-c2ccccc2)o1,benzodiazepine site rat,binding,rat brain,10 µM,,inhibition,35%
Cc1c(C)c(C)c(C[N+]2(C)CCN(CCCN3c4ccccc4Sc4ccc(Cl)cc43)CC2)c(C)c1C,ppa,"inhibitor, counter-screen, coupling enzyme alone",,30 µM,,inhibition,51.7%
c1ccc(OC[C@H]2CN(CCN3CCc4ccccc43)CCO2)nc1,"5-hydroxytryptamine receptor 4 (HTR4, Homo sapiens, UniProt Q13639)",radioligand binding,,concentration not given,,inhibition,-2.4%
CN(C)c1nc(NCc2ccc(-c3ccccc3)cc2)c(/N=N/c2ccc(Cl)cc2)c(N(C)C)n1,OfChi-h,"enzyme activity, inhibitor, fluorescence",,1 µM,,inhibition,88.1%
Oc1cc2c(cc1O)C(c1ccccc1)NCC2 (stereo not shown),tyrosinase,"enzyme activity, inhibitor",,"100 µM, with: levodopa",,inhibition,25.2 ± 1.48%
CN(Cc1ccc(/C=C/C(=O)NO)cc1)CC12CC3CC(CC(C3)C1)C2,MMP-2,enzyme activity,,0.05 µM,,inhibition,5%
C[N+](C)(C/C=C/CN1C(=O)c2ccccc2C1=O)CCCN1c2ccccc2CCc2ccc(Cl)cc21,ppa,"inhibitor, counter-screen, coupling enzyme alone",,30 µM,,inhibition,45.3%
CCCC(=O)O[C@@]1(C)CN(Cc2ccccc2)[C@H]2C[C@@H]1CC(=O)[C@@H]2C,"Sigma intracellular receptor 2 (Tmem97, Rattus norvegicus, UniProt Q5U3Y7)","ligand displacement, radioligand",,1 µM,,inhibition,0%
COc1ccc(C(=O)Nc2c(-c3cccs3)nc3ccccn23)cc1,ADRB3,"ligand displacement, radioligand",,10 µM,,inhibition,< 50%
O=C(O)c1ccc(Nc2c(-c3ccc(CON=Cc4ccc(-c5cnccn5)cc4)cc3)nc3cc(-c4ccccc4)ccn23)cc1,TDP1,"enzyme activity, inhibitor",,100 µM,,inhibition,102%
CN1CCN(Cc2ccc(-c3ccc(CO[C@H]4CCC[C@@H]4NC(=O)c4cc(-c5cnn(C)c5)cnc4N)cc3)cc2)CC1,PIK3C2A,"enzyme activity, inhibitor",,0.1 µM,,inhibition,9%

# Some of these lines once more:
SMILES,target or system,assay,test system,setting,scale,quantity,result
COc1ccc(Br)cc1C[N+](C)(C)CCCN1c2ccccc2CCc2ccc(Cl)cc21,Uncharacterized protein,"enzyme activity, inhibitor, coupled colorimetric",,"30 µM, with: E. coli pyrophosphatase coupling",,inhibition,39.9%
O=C(O)c1ccc(Nc2c(-c3ccccc3)nc3ccc(CON=Cc4cc5cccnc5s4)cn23)cc1 (mixture of isomers),TDP1,"enzyme activity, inhibitor",,"100 µM, unpurified compound",,inhibition,29.5%
O=C1c2sc(-c3ccc(N4CCC(CO)CC4)nc3F)nc2CCN1c1cccnc1,ADRB3,"ligand displacement, radioligand",,1 µM,,inhibition,-15%
C=C(NC(=O)c1csc(-c2nc3c(cc2O)-c2nc(cs2)C(=O)NC(C(C)O)C(=O)NC(=C(C)OC)c2nc(cs2)C(=O)NC2c4nc(cs4)C(=O)NC(COC(=O)c4c5c6c(cccc6n4O)COC(=O)C(OC4CC(C)(O)C(N(C)C)C(C)O4)C2OC5)c2nc-3cs2)n1)C(N)=O (stereo not shown),,,"cynomolgus monkey, male, plasma","intravenous infusion, 3 mg/kg, multiple doses, day 7",,AUC(0-inf),21600 ng·h/mL
COc1cc(-n2cc3cc(F)cc(C(N)=O)c3n2)cc(Cl)c1C1CC(O)(CCO)Cc2ccccc21 (stereo not shown),"Protein mono-ADP-ribosyltransferase PARP15 (PARP15, Homo sapiens, UniProt Q460N3)","enzyme activity, inhibitor",,10 µM,,inhibition,0.81%
COC1CN([C@H]2CC[C@H]([C@@]3(C)Oc4c(Cl)cc(C(=O)NCc5c(SC)cc(C)[nH]c5=O)c(C)c4O3)CC2)C1,,"RNA-seq, item: SMPD3 mouse homolog","mouse, HT-1376 xenograft, whole blood",dose not given,relative to: vehicle,log2 fold change,4.01
O=C(CSc1nnc(-c2ccco2)c(-c2ccco2)n1)c1ccc(Br)cc1,Uncharacterized protein,"enzyme activity, inhibitor, coupled colorimetric",,"30 µM, with: E. coli pyrophosphatase coupling",,inhibition,30.7%
Nc1ncc(-c2cc(-c3cnn(CC(F)(F)F)c3)ncc2F)nc1C(=O)NC1CNCC(F)C1 (stereo not shown),MARK3,KINOMEscan,,1 µM,relative to: DMSO control,remaining binding,100%
